Results collected from several papers.
Parts stem from different laboratories: compare values within a part only. Changes are numbered by the printed parent chain.

Set 1
Target: RNA binding protein fox-1 homolog 2, RRM domain, GST-SBP tag (RBFOX2, Homo sapiens, UniProt O43251-10, residues 100-194)
Technique: RNA Bind-n-Seq
Form: RNA
Sample: in vitro
Tested at: 365 nM
Notes: natural RNA segment, single round, ends assumed
Baseline: no-protein control
Direction: higher = stronger binding
Constant ends, left off below: GGGAGUUCUACAGUCCGACGAUC … UGGAAUUCUCGGGUGCCAA
Target sequence (chain): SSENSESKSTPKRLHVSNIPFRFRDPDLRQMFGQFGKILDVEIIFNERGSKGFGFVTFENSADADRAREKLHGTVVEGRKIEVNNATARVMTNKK
Sequence	RBNS enrichment (R)
GAAAAAGCCUAGGAGUACUGGCAGUGGAUGAACAAUUUCACCAAACAUCCAGCUUUUUUCCUGCCUCCCUCUGAAUUCUCCAGGAUCUGCUUCACCCUCACCACCACCAC	0.55
UCAUUAACAGCCUGGGUGAACAUGGCUGGGAGUAAAGGGCUUGCUCUCCUGCAUGUUGACAUGACGGCCCUUUCCAAGGGUGAUGGAGGCUUUCCCAAGCUAAGGGCCUA	6.42
CAUUCUUUUGUGAGUUUUGCAGCAGUCUUGAAUAAUACAGAUUAUAACUACUGAAAGGGGAACCUUCGUCUUUUUAAAUGUGUUAUUUCACAUUACAAUAAUAUGUGUAG	0.406
CAGCCCCAAACCUUUUGUUCUCUCCGUGAAACUUACCUUUCCCUUUUUCUUUCUCUUUUUUUUUUUUGUAUAUUAUUGUUUACAAUAAAUAUACAUUGCAUUAAAAAGAA	0.386
UUUGGGGGCUCAGCCCUGCCCGGUUAAGUUGACAUAUCAAGUUAACCCACUGAAGGGCUUCAGGUUUCAUUUUUUAAUCUUCUCAAAAACCAGAAAAAAAAAAUCAGAAA	0.401
AUCCAAACUGGUUUGUUAAAAACUCUAGGUCACAUUCUUACACUAAGAAAAACAGUUAACAUGAGACAAAGUUUAGGAAAAACUAAUAAAAGAAACCUGUCUUAACUUGA	0.305
UGCUUCUGGAUUCUCACCUUCACAGGGAGUUUCUUCCCGCCUCGGCCUUCUGGACAUGUCCUCUGUCCUGCCUCAGAGAGCUUUGCCUGGCUCCACCUCCUCUCCUGAGU	0.372
AUACGUUUACAGAGGAAACUUGAUCAUUUCCAACCAUCUUCCCCUACCCCACCCUCUCGCCCCUGGCACCUGUCUUCUAUUUGUCGAGUUCACUGUUGAUCCUGUUGUAG	0.668
CUGAUAUUAUGGCAAGUGAUAUCACCUCUCUUCAGCCCCUAGUGCUAUUCUGUGUUGAACACAAUUGAUACUUCAGGUGCUUUUGAUGUGAAAAUCAUGAAAAGAGGAAC	0.29
GAUUUGUUUUCUUCAAUAGUCUUAUUUUCAGUCUCUCAAAUACAGCCAACUUAAAGUUUUAGUUUGGUGUUUAUUGAAAAUUAACCAAACUUAAUACUAGGAGAAGACUG	0.417
CGGGCCUGCUGUGCUGCUUUUGUGCCAAGGUUAGCCAGUCCCCCCUGUUGUGUUCCAUGUGCUUUCACCUCUGCCUCAUCUUUCCUCCCGUCCCUGCCCCGCCACCUCCC	0.527
GGGUGUCGGCUGCGGCAUUAAAUUCAUCAUCUCAACCCAGAGUGUCUGGUCUCCCUGCUCUUUCUGCAUGGUUGUGUCCCUAGUCCUAAGCUUUGGUUCUUUAGGGUGAC	6.45

Set 2
Target: Sal-like protein 4, full length isoform B (SALL4, Homo sapiens, UniProt Q9UJQ4-2, residues 1-616)
Technique: universal PBM
Form: double-stranded DNA, one strand shown
Sample: in vitro
Tested at: not given
Notes: 8-mer, flanks averaged, mean of replicates
Direction: higher = stronger binding
Residues (chain): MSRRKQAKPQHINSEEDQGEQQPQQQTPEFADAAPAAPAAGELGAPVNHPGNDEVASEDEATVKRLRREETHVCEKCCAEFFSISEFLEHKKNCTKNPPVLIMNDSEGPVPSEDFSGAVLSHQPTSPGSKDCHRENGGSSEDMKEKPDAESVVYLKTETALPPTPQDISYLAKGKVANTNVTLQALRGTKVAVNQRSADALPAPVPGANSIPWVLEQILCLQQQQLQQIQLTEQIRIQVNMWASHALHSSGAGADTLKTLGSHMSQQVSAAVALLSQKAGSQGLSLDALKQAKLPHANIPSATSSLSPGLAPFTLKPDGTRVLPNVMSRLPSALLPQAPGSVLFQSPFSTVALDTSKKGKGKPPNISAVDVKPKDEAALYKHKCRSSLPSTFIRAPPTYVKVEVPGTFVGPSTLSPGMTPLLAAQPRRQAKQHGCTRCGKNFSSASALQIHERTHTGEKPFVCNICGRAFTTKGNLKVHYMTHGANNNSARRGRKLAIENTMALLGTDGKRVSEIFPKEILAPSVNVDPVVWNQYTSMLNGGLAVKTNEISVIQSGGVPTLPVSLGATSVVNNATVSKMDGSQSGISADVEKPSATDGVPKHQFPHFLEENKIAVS
Sequence	E-score
TGGCGAAA	-0.0308
ATTACAAA	0.356
TAGGCCTA	0.114
ACAATAAA	0.34
GCAGATAA	0.101
ACCACCAT	-0.16
AGAGGACC	-0.311
AATCAACC	-0.0759
ACTGAAGT	-0.00818
ACTTCTCT	0.0979
GACGCTCC	-0.234
CGAACCCG	-0.301
CCCTGTCC	-0.301
CTACTTAA	0.0825
CGGTAGTC	-0.265
AAAATGTA	0.306

Set 3
Target: Centromere-binding protein 1, full length, N-terminal tag (CBF1, Saccharomyces cerevisiae, UniProt P17106, residues 1-351)
Sequence of UniProt P17106 (whole entry, looked up): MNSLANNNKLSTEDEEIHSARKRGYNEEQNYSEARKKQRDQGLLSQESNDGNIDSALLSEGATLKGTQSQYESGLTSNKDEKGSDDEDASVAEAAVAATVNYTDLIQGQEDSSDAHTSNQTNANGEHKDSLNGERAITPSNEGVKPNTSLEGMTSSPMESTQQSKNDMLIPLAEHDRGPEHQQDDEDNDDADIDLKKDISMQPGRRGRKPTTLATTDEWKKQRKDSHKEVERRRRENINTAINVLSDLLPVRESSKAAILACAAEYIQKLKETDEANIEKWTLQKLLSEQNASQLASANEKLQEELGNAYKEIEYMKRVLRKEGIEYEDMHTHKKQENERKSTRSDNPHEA
Technique: protein-binding microarray
Form: double-stranded DNA, one strand shown
Sample: in vitro
Tested at: 0.8 µM
Notes: whole 60-bp probe, no competitor
Direction: higher = stronger binding
Constant ends, left off below: … GTCTTGATTCGCTTGACGCTGCTG
Sequence	fluorescence intensity [a.u.]
GAAGTTGTCGTCAATCACATGTAAATATCATTATAG	1340
CTATTTATAAGTTACATCACCTGTTTGCTGTTATTC	761
CCTAACTACTATATTCACCTGTTATAGCTTCGTACA	551
GAACAGACGTAAAACCGCATGACACCAAGCCTATAG	577
GAATGTGAGGATTATTGTCATGTGAAGGCGTGATAG	1290
GAACTTACTCTCGCGCACGATCTTGAATTGTGGTAG	534
GAACCTGCTATGCTCCACATGTTAAAGGGAAAATAG	591
TGTACGAAGCTATCGTGCGTTTTTATAGTAGTTAGG	516
GAAGAAGCCTTTGCACCTGATATAAAAAGTGTCTAG	1000
CTAAAGATCAAATCTCACATGTTTATCATTCATTTC	604
CTAGCTGGTAATCGTGGTGACTCCAGAACCAAATTC	520
GAAAAAAAAATGCATTACATCACGTTCCTTGCTTAG	1090
GAATTCATAACCTGTCACCTTGAAACTAAAAAATAG	550
CCTAACTACTATACGCACACGTAATAGCTTCGTACA	499
GAAACTTAAATAACACACACGTTATCTCTAGCGTAG	625
CTAGATGAGTCGAGTCATCACCTTCCTCTAAACTTC	508
CCTAACTACTATAATGATGACACATAGCTTCGTACA	533
CTATGGTATAATATTCACATGGTGCTCTACCGTTTC	668
CCTAACTACTATACCATCACTACATAGCTTCGTACA	502
GAAAGTTTCACGTTTCATCACATGAAAGTGTGGTAG	1310
CTATCATTGGTTGGTGGTGCGATTTAATGCGTATTC	519
CTACACCCCCCCACACACGTTCCGCCCACTTTTTTC	510

Set 4
Target: Histone acetyltransferase KAT6A, winged helix 1, GST fusion (KAT6A, Homo sapiens, UniProt Q92794, residues 1-85)
Technique: protein binding microarray
Form: double-stranded DNA, one strand shown
Sample: in vitro
Tested at: not given
Notes: 8-mer, flanks averaged, mean of 2 arrays, mostly near background
Baseline: not given
Direction: higher = stronger binding
Construct (chain): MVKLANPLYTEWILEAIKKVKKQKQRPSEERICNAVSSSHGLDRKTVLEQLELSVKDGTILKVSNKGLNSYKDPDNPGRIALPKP
Sequence	E-score
CATTCTTC	-0.169
AACTGCTA	-0.119
AGCCCTGA	-0.114
ACAGCCAA	-0.0833
CAATGCAA	-0.143
ACGCATAA	-0.0168
AAACGGCG	0.32
CTACAATA	0.115
AGATTGTG	-0.0341
ATGGACAG	-0.107
GTGACTTA	-0.038
CACGGAAG	0.219
CGCCACCG	0.254
CTCCCCAG	-0.148
GAGGGTCA	-0.0619
AAAGTCAA	-0.14
CGCCTTAA	0.147
CGATGCAA	-0.0208
ACTGGTGC	0.0162
CCGACGCG	0.465
ATGCTTGA	-0.101
ATCTGTCC	-0.0509

Set 5
Target: ABI1, truncated, D143A, DHFR fusion (Arabidopsis thaliana)
Technique: DHFR PCA, deep sequencing
Sample: yeast
Notes: methotrexate growth selection, single substitutions
Added: (+)-ABA 200 µM
Baseline: wild-type fitted maximum
Direction: higher = stronger binding
Parent: PYL1, truncated, DHFR fusion (Arabidopsis thaliana); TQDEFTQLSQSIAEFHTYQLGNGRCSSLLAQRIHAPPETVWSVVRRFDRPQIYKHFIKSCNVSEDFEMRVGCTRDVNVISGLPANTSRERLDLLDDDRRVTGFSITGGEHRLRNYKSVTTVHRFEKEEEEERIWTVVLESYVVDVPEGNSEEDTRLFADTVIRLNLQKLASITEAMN
Change	relative binding score [%]
A13C	94.1
T6Y	92.7
Q167C	90
R111N	85.2
D95S	75
E67H	104
R163K	101
E127R	105
A84W	66.3
G81H	36.5
N149A	78.3
I172R	71.8
P37D	71.5
F15W	104
T173A	98.8
G71H	69.4
A30R	102
P37M	86.5

Set 6
Target: RING finger protein unkempt homolog, zinc fingers 1-6, SBP tag (UNK, Homo sapiens, UniProt Q9C0B0, residues 30-357)
Sequence of UniProt Q9C0B0 (30-357, looked up): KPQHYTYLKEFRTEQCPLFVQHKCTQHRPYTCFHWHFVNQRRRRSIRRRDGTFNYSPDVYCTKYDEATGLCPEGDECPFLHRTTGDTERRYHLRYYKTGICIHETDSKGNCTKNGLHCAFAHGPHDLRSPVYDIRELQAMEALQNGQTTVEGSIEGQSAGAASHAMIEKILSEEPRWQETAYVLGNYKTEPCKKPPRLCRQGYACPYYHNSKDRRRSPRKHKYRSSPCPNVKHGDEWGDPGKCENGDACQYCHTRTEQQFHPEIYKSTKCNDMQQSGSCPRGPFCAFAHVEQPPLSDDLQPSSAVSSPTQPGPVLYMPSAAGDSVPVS
Technique: RNA Bind-n-Seq
Form: RNA
Sample: in vitro
Tested at: 100 nM
Notes: RNA with constant flanks, ends assumed
Baseline: input RNA pool
Direction: higher = stronger binding
Sequence	bound/input enrichment
GGGAGUUCUACAGUCCGACGAUCUGAACUUUCCGCUUUCAAGUUGUGGCUGUUUUUUGUUUUUGUUUUUGUUUUUGUUUUCUUCCGAAUUUUUCCCUGUUUCCCACCUUCUCUUCCCCUGUUGCCAAGGUCUAACUCAUGGAUCAACAGAGGAUUGAGCAUCA	1.25 ratio
GGGAGUUCUACAGUCCGACGAUCGGUUAAUGUGUUAUUUAUUGAGUAUUGUUUGUGCUAAGCAUUGUGUCCGAUUUAAAAAAUCCGUGGAUUGACUCCACUUUGUUGUGUUGUUUUCAUUGUUGAAAAUAAAUAUAACUUUGUCAACAGAGGAUUGAGCAUCA	0.281 ratio
GGGAGUUCUACAGUCCGACGAUCCACUCUAAUUAAUUGUAAUCUGAAUAAAGUGUAACAAUUGUGCCGCCUUUUUGUAUAAAACCGACAAACCGAAAAUGGUCCAAUCCGUUUCCUUUUUAAUAUGCUUAAAAUAAGCAGGUGCAACAGAGGAUUGAGCAUCA	0.56 ratio

For quick reference, copied from above (set 3):
Sequence	fluorescence intensity [a.u.]
GAACCTGCTATGCTCCACATGTTAAAGGGAAAATAG	591
CTAGCTGGTAATCGTGGTGACTCCAGAACCAAATTC	520
GAAAGTTTCACGTTTCATCACATGAAAGTGTGGTAG	1310
CTAGATGAGTCGAGTCATCACCTTCCTCTAAACTTC	508
CTACACCCCCCCACACACGTTCCGCCCACTTTTTTC	510
CCTAACTACTATAATGATGACACATAGCTTCGTACA	533
CTATGGTATAATATTCACATGGTGCTCTACCGTTTC	668
GAACTTACTCTCGCGCACGATCTTGAATTGTGGTAG	534
GAAGTTGTCGTCAATCACATGTAAATATCATTATAG	1340
